Assay results from different studies.
Every numbered part comes from another study and shows a few of its results, in no order.

Set 1 — technique: protein binding microarray; molecule type: double-stranded DNA, one strand shown; matrix: in vitro; concentration: not given; reference: not given; reading: higher = stronger binding
Target: Histone acetyltransferase KAT6A, winged helix 2, GST fusion (KAT6A, Homo sapiens, UniProt Q92794, residues 85-181)
Notes: 8-mer, flanks averaged, mean of 2 arrays, mostly near background
Residues (chain): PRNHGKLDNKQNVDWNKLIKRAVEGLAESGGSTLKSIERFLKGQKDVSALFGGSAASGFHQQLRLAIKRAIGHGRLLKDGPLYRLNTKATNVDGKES
`ATCACAAG` gave an E-score of -0.0346.
The E-score of `AATACGTG` is reported as -0.182.
With `TAATCTGA` the E-score was -0.0352.
`ATAACTAT` has an E-score of -0.149.
`ACGGTCCC` has an E-score of -0.0246.
The E-score of `TTAGTCAA` is reported as -0.0391.
`ACCTCTTC` has an E-score of 0.0611.
`AGTCTGTC` has an E-score of -0.144.
With `ACAGAACC` the E-score was -0.0368.
With `GTTGAGGA` the E-score was 0.0995.

Set 2 — technique: protein-binding microarray; molecule type: double-stranded DNA, one strand shown; matrix: in vitro; concentration: 2200 nM top; notes: 60-bp whole probe; together with: salmon DNA 0.4 mg/ml; reference: random background probes; reading: higher = stronger binding; all sequences stand within: GCCTAGCAC … GTCTTGATTCGCTTGACGCTGCTG
Target: Interferon regulatory factor 7, full length, phosphomimetic (IRF7, Homo sapiens, UniProt Q92985, residues 1-503, S471D/S472D/S475D/S476D/S477D/S483D/S484D/S487D)
Residues (chain): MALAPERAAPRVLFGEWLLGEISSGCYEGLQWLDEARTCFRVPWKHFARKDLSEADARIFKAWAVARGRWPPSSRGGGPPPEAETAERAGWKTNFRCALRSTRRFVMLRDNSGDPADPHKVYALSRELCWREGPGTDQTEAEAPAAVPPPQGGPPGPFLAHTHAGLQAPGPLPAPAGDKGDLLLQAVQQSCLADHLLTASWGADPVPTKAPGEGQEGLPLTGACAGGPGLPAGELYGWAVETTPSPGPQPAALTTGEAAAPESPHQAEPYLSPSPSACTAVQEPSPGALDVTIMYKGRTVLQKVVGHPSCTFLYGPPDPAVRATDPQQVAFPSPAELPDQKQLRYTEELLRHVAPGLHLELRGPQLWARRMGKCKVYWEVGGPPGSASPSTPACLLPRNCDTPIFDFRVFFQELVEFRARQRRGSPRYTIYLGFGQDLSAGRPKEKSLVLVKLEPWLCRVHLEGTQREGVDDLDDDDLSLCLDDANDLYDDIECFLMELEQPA
`TCACGCTTCATCTCCCAGACTGTGCTA`: “fitted relative affinity” 2.12 z-score.
`CTAGGTTTCCTTATCCTTTAGTGCTAG`: “fitted relative affinity” 2.13 z-score.
`TTAGGTATCGGGTTTTGGTTAGTGCTA`: “fitted relative affinity” 1 z-score.
Under “fitted relative affinity”, `TTAGATATCAGACTGGATTCGTGCTAG` is recorded as -0.00909 z-score.
For `TGAAGTTTTAATAACACAGAGTGCTAG`, “fitted relative affinity” read -1.04 z-score.
Under “fitted relative affinity”, `CAGAGCATGGATCTGGGAACGTGCTAG` is recorded as -0.681 z-score.
`GACGGACTGCTTCTCCTGTCGTGCTAG` — result for “fitted relative affinity”: 0.995 z-score.
`TTAGGTTACCTTCTCCTTTAGTGCTAG`: “fitted relative affinity” 1.24 z-score.

Set 3 — technique: RNA Bind-n-Seq; molecule type: RNA; matrix: in vitro; concentration: not given; reference: input RNA pool; reading: higher = stronger binding
Target: RING finger protein unkempt homolog, zinc fingers 1-6, GST-SBP tag (UNK, Homo sapiens, UniProt Q9C0B0, residues 30-357)
Chain of UniProt Q9C0B0 (30-357, looked up): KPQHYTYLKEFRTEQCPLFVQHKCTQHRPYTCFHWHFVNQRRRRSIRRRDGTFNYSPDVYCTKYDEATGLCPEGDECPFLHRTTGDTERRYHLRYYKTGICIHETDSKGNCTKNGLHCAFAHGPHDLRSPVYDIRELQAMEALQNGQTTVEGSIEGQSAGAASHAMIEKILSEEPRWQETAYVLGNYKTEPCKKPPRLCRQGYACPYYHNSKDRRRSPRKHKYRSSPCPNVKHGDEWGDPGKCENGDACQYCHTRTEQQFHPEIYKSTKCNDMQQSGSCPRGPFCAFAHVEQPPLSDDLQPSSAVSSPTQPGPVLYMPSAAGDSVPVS
Notes: RNA with constant flanks, human and mouse sites, ends assumed
All sequences stand within: GGGAGUUCUACAGUCCGACGAUC … CAACAGAGGAUUGAGCAUCA
`UAGAUGGAAGAUUGAAAUUAGUCUUUACUUCCCCUUCUUACUAUGAUGAUGUCCACUUUUAAAUGUUGCUAAAAGAGAACAAUUUCAACUAAUCUUGACAUUUUCCUGACUAACUAGACA` gave a bound/input enrichment of 1.38 ratio.
`GAGUGCCCCAUGUUCACCCCGCCUGGAGGAGAGACAGUUGAGCAGGUAAAGAUGCGCGGAAAGGAUUUCUUUGAUUUCAUUUGUCAGCUAAUCCUGGGCAAGGCAGGGCAGAGAGAAAGC` has a bound/input enrichment of 0.169 ratio.
`CAUUGUGGAAUUCCCUAGCAAUUUAUUUAGACUUAAUUUUUUAAAUUCAAGCUUACUGUAUUAGUCAUUUUUAGCCCAUAAUUAAAACAUGAUCACUUUUACACAGGUGUAGUAUGGUGC` gave a bound/input enrichment of 818 ratio.
`AUUGAUGAGAUCCAUAAUGAUGAUGGUGUGUGGCUGAGGCUGAAUGAUGAGACAAUAAAGAAGUAUGUCCCUAACAUGAAUGGUUACACUGAAGCCUGGUGCCUCUCUUUUAAUCAACAU` has a bound/input enrichment of 0.148 ratio.
`AGCGACCUCAUCCCCGCCUUCCAGAGCCUCCUCCGAGACUGCGAAGCUGAAGUCCGAGCAGCCGCUGCCCACAAAGUAAGAGAGCUUUGUGAGAACCUGCCCGCUGAAGGUAGAGAGACU` has a bound/input enrichment of 0.156 ratio.
For `CUUUCCCCAAAUAACAAUAUUUCAGAGGCUUUGAAAAAAUUUGGUAUCUCAGCAAAUGACACUUCAAUUCUAAUUGUUUACAUUGAAGAGGGAGAAAAACAAAUAAAUCAAGAAUACCUA`, the bound/input enrichment was 0.305 ratio.
With `GAGAUGCAUCCAGUGAUGUGAGGGGGACCUCUGGGGACUGUCAUUCUCAGUAUCAUGUAGGAAUUUAAAAAGCCAAAAUACUAAUUCUUUCUUUGUAGUGUGUAAGGGAGUGUUUUUAAA` the bound/input enrichment was 3.42 ratio.
With `AGCUCUGGCCCGCAUCUCGCUGUGCCCUGAAGGGGGAUGAAGGGCGAUGCCUCGCCCGAGGCUUUGGGCUGCUGCACUGCAUGCUGGGACUGCUCCUACUCUCUGUCCCACCCCUCACCC` the bound/input enrichment was 0.118 ratio.
The bound/input enrichment of `UUCAAUGACACUUUUCUCUCCAUUGAACAUUUAAAGGCCAGCUUUCCUGGUCAUAAUGUCAAAGUGACUGUGAGUGACCCAGCACUCCAAAUCCCCCCUUUCAGAAUAACGUUCCCAGUA` is reported as 0.637 ratio.
With `GAUGAAUUGAUGACCCUGGCUCAUAAGCACAUUGUCAAGACUGUGGAUUUCACACAGGAUAGCAAUUACCUGCUAACUGGGGGACAGGAUAAACUGCUGCGCAUAUAUGACUUGAACAAA` the bound/input enrichment was 0.35 ratio.

Single results of other studies
`PhoQ, residues 284 288 289 292 302 303 TNASYF` has a fold induction of 1.29 (PhoP, residues 12 14 15 18 19 SYFRT (Escherichia coli, UniProt P23836); Sort-seq, measured: YFP reporter; E. coli; PhoQ-PhoP variant library, together with: 10 µM Mg2+; reference: high Mg2+ state, higher = stronger signaling).

For quick reference, copied from above (set 1):
With `ACAGAACC` the E-score was -0.0368.
With `GTTGAGGA` the E-score was 0.0995.
